{"data": "Measurements from different studies", "note": "Protocols differ between the studies behind these lines. Numbers after ± are the reported error.", "UniProt P11229, sequence (whole entry, looked up)": "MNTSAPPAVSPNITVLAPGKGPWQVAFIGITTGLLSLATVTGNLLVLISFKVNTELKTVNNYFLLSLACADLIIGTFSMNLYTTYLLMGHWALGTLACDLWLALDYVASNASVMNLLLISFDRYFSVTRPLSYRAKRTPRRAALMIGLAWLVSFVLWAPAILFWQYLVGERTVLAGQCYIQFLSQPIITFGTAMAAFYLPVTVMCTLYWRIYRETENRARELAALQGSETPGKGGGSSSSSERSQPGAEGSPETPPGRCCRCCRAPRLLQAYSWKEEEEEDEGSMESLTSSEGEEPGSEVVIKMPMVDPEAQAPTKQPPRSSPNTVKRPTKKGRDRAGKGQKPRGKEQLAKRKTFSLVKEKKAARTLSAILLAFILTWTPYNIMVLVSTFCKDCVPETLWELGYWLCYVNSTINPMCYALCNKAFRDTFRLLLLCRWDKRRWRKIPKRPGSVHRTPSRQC", "UniProt P20309, sequence (whole entry, looked up)": "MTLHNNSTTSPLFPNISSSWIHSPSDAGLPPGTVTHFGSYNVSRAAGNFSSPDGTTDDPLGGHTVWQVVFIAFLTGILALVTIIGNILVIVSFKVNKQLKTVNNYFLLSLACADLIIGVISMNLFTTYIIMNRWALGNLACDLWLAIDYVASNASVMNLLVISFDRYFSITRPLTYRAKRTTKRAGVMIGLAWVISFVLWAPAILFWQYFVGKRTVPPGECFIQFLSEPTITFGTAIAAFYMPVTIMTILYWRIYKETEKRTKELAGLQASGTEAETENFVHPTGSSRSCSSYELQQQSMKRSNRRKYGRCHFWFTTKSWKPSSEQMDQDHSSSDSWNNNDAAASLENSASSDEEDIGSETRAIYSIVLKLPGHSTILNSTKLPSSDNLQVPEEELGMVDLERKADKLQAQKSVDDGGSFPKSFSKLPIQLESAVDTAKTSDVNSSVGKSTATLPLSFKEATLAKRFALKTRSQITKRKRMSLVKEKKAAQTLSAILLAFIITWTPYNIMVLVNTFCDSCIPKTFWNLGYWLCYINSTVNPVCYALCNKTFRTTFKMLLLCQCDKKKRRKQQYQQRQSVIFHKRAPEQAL"}
{"SMILES": "CCCCOc1ccc(C(=O)OCC[N+]2(C)CC=CCC2)cc1 (stereo not drawn)", "target or system": "Muscarinic acetylcholine receptor M3 (CHRM3, Homo sapiens, UniProt P20309)", "test": "inositol phosphate accumulation, antagonist, Schild analysis", "system": "CHO", "setting": "added: carbachol", "measurement": "Kb", "result": "3.16 µM"}
{"SMILES": "Nc1ccn(C[C@@H](CO)OCP(=O)(O)OCCCS(=O)(=O)CCCCCCCCCCCCCC2CCC2)c(=O)n1", "target or system": "human alphaherpesvirus 2", "test": "cytopathic effect", "system": "HFF, G", "measurement": "EC50", "result": "0.14 ± 0.23 µM"}
{"SMILES": "C=C(C)[C@@H]1CC[C@]2(C(=O)NC(CO)Cc3ccccc3)CC[C@]3(C)[C@H](CC[C@@H]4[C@@]5(C)CCCNC(C)(C)[C@@H]5CC[C@]43C)[C@@H]12 (stereo partly drawn)", "target or system": "human papillomavirus 11", "test": "viral replication, inhibitor, luciferase", "system": "C-33-A", "measurement": "EC50", "result": "> 0.24 µM"}
{"SMILES": "COC(=O)C(CCSC)NC(=O)C1OC(OC2C(OC3CCC4(C)C(CCC5(C)C4C(=O)C=C4C6CC(C)(C(=O)O)CCC6(C)CCC45C)C3(C)C)OC(C(=O)NC(CCSC)C(=O)OC)C(O)C2O)C(O)C(O)C1O (stereo not drawn)", "target or system": "Epstein-Barr virus", "test": "viral genome copies, quantitative PCR", "system": "superinfected Raji cells", "setting": "24 h", "measurement": "EC50", "result": "> 1000 µM"}
{"SMILES": "C=C(C)[C@@H]1CCC=C2CC[C@]3(C)[C@H](CC[C@@H]4[C@@]5(C)CCCNC(C)(C)[C@@H]5CC[C@]43C)[C@H]21", "target or system": "human papillomavirus 11", "test": "viral replication, inhibitor, luciferase", "system": "C-33-A", "measurement": "EC50", "result": "> 1.2 µM"}
{"SMILES": "CS(C)=O.CS(C)=O.[Cl][Cu][Cl].c1ccc(-c2nnc(-c3ccc4c(c3)OCO4)[nH]2)nc1", "target or system": "T24", "test": "FITC-IETD-FMK flow cytometry", "setting": "5.3 µM, 24 h", "measurement": "activated caspase-8 cells", "result": "33.4%"}
{"SMILES": "c1ccc(-c2nc(-c3ccc4ccccc4c3)c[nH]2)cc1", "target or system": "Schistosoma mansoni", "test": "worm killing", "system": "female worms", "scale": "no effect", "measurement": "EC50", "result": "> 100 µM"}
{"SMILES": "C[C@H](N)C(=O)OCCOCn1cnc2c(=O)[nH]c(N)nc21", "target or system": "human alphaherpesvirus 2", "test": "viral cytopathic effect, CPE inhibition", "measurement": "EC50", "result": "17.7 µM"}
{"SMILES": "COC(=O)C(CCC(=O)O)NC(=O)C1OC(OC2C(OC3CCC4(C)C(CCC5(C)C4C(=O)C=C4C6CC(C)(C(=O)O)CCC6(C)CCC45C)C3(C)C)OC(C(=O)NC(CCC(=O)O)C(=O)OC)C(O)C2O)C(O)C(O)C1O (stereo not drawn)", "target or system": "Epstein-Barr virus", "test": "EA/VCA antigen expression, indirect immunofluorescence", "system": "superinfected Raji cells", "setting": "24 h", "measurement": "EC50", "result": "175 µM"}
{"SMILES": "COc1ccc2c(c1)C=C(C(=O)N1CCOCC1)Cn1c-2c(C2CCCCC2)c2ccc(C(=O)NS(=O)(=O)N(C)C)cc21", "target or system": "hepatitis C virus", "test": "replicon replication", "system": "Huh-7 replicon cells, genotype 1b Con1", "measurement": "EC50", "result": "< 0.1 µM"}
{"SMILES": "COc1ccc(S(=O)(=O)NCc2c[nH]nc2-c2cccs2)cc1", "target or system": "Plasmodium falciparum", "test": "parasite growth", "measurement": "EC50", "result": "0.117 µM"}
{"SMILES": "CC1(C)C2CC[C@]3(C)C(C(=O)C=C4[C@H]5C[C@@](C)(C(=O)O)CC[C@]5(C)CC[C@]43C)[C@@]2(C)CC[C@@H]1O[C@@H]1O[C@H](C(=O)O)[C@@H](O)[C@H](O)[C@H]1O[C@@H]1O[C@H](C(=O)O)[C@@H](O)[C@H](O)[C@H]1O (single isomer, unassigned)", "target or system": "Epstein-Barr virus", "test": "EA/VCA antigen expression, indirect immunofluorescence", "system": "superinfected Raji cells", "setting": "24 h", "measurement": "EC50", "result": "50 ± 8.33 µM"}
{"SMILES": "Nc1nc2c(ncn2COCCOC(=O)[C@@H](N)CS)c(=O)[nH]1", "target or system": "human alphaherpesvirus 2", "test": "viral cytopathic effect, CPE inhibition", "measurement": "EC50", "result": "14.7 µM"}
{"SMILES": "[64Cu+2].c1cnc(CNCc2ccc(CN3CCCN4CCNCCCN(CC4)CC3)cc2)nc1", "target or system": "CXCR4", "system": "NOD/SCID mouse, U87 and U87-stb-CXCR4 xenografts, liver", "setting": "iv, 450 min, ex vivo", "measurement": "tissue uptake", "result": "79.8 ± 7.16 %ID/g"}
{"SMILES": "NS(=O)(=O)c1ccc(NC(=O)NN[C@@H]2O[C@H](CO)[C@@H](O)[C@H](O)[C@@H]2O)cc1", "target or system": "rabbit erythrocytes", "setting": "8 µg/mL, 3 h", "scale": "relative to: complete lysis", "measurement": "hemolysis", "result": "0%"}
{"SMILES": "Nc1ccn(C[C@@H](CO)OCP(=O)(O)OCCCS(=O)(=O)CCCCCCCCCCCCC2CCC2)c(=O)n1", "target or system": "human alphaherpesvirus 2", "test": "cytopathic effect", "system": "HFF, G", "measurement": "EC50", "result": "0.01 ± 0.01 µM"}
{"SMILES": "CCCC[C@H](NC(=O)COCCOCCNC(=O)CN1CCN(CC(=O)O)CCN(CC(=O)O)CC1)C(=O)N[C@H]1CC(=O)NCCCC[C@@H](C(N)=O)NC(=O)[C@H](Cc2c[nH]c3ccccc23)NC(=O)[C@H](CCCNC(=N)N)NC(=O)[C@@H](Cc2ccccc2)NC(=O)[C@H](Cc2c[nH]cn2)NC1=O [copper-64 labelled]", "system": "C57 mice, heart", "setting": "intravenous, 0.37 MBq, 4 h", "measurement": "tissue uptake", "result": "0.18 ± 0.06 %ID/g"}
{"SMILES": "CC1(CCCCCCCCCCOCCCOP(=O)(O)CO[C@H](CO)Cn2ccc(N)nc2=O)COC1", "target or system": "human alphaherpesvirus 3", "test": "cytopathic effect", "system": "HFF, Ellen", "measurement": "EC50", "result": "1.01 ± 0.22 µM"}
{"SMILES": "CNC(=O)c1ccc(-c2ccc(Cl)cc2)c(COc2ccc(-c3nc4cc(C(=O)O)ccc4n3C3CCCCC3)cc2)c1", "target or system": "hepatitis C virus", "test": "replicon replication", "system": "Huh-7, genotype 1b Con1", "measurement": "EC50", "result": "0.4 µM"}
{"SMILES": "CC1(CCCCCCCCCCCCCCOCCCOP(=O)(O)CO[C@H](CO)Cn2ccc(N)nc2=O)COC1", "target or system": "human alphaherpesvirus 3", "test": "cytopathic effect", "system": "HFF, Ellen", "measurement": "EC50", "result": "0.03 ± 0.03 µM"}
{"SMILES": "C[C@@H](N)C1CCN(S(=O)(=O)c2cccc3cnccc23)CC1", "target or system": "ROCK", "test": "MLC2 phosphorylation, inhibitor", "system": "HUVEC", "setting": "50 µM, 1 h then washout, added: LPA", "measurement": "duration of action", "result": "≤ 1 h"}
{"SMILES": "[64Cu+2].c1ccc(CNCc2ccc(CN3CCCN4CCNCCCN(CC4)CC3)cc2)nc1", "target or system": "CXCR4", "system": "NOD/SCID mouse, U87 and U87-stb-CXCR4 xenografts, lungs", "setting": "iv, 60 min, ex vivo", "measurement": "tissue uptake", "result": "10.6 ± 1.72 %ID/g"}
{"SMILES": "CC1(CCCCCCCCCCCCOCCCOP(=O)(O)CO[C@H](CO)Cn2ccc(N)nc2=O)COC1", "target or system": "human alphaherpesvirus 3", "test": "cytopathic effect", "system": "HFF, Ellen", "measurement": "EC50", "result": "0.69 ± 0.54 µM"}
{"SMILES": "CNC(=O)c1c(F)cccc1Nc1nc(Nc2cc3c(cc2OC)CCN3C(=O)CN(C)C)nc2[nH]ccc12", "target or system": "Leishmania major", "test": "parasite growth", "setting": "promastigote", "measurement": "EC50", "result": "> 25.1 µM"}
{"SMILES": "Nc1ccn(C[C@@H](CO)OCP(=O)(O)OCCCS(=O)(=O)CCCCCCCCCCC2CCC2)c(=O)n1", "target or system": "human alphaherpesvirus 3", "test": "cytopathic effect", "system": "HFF, Ellen", "measurement": "EC50", "result": "0.02 ± 0.01 µM"}
{"SMILES": "O=Cc1c(O)ccc2ccccc12", "target or system": "HUVEC", "test": "RNA sequencing, refers to: C9orf64", "setting": "75 µM, 24 h", "scale": "relative to: DMSO", "measurement": "log2 fold change", "result": 2.5}
{"SMILES": "CC(C)CC(NC(=O)C1OC(OC2C(OC3CCC4(C)C(CCC5(C)C4C(=O)C=C4C6CC(C)(C(=O)NC(CC(C)C)C(=O)O)CCC6(C)CCC45C)C3(C)C)OC(C(=O)NC(CC(C)C)C(=O)O)C(O)C2O)C(O)C(O)C1O)C(=O)O (stereo not drawn)", "target or system": "Epstein-Barr virus", "test": "EA/VCA antigen expression, indirect immunofluorescence", "system": "superinfected Raji cells", "setting": "24 h", "measurement": "EC50", "result": "~42 µM"}
{"SMILES": "C[C@H]1[C@H](C)CC[C@]2(CO)CC[C@]3(C)C(=CC[C@@H]4[C@@]5(C)CCCNC(C)(C)[C@@H]5CC[C@]43C)[C@H]12", "target or system": "human papillomavirus 11", "test": "viral replication, inhibitor, luciferase", "system": "C-33-A", "measurement": "EC50", "result": "> 1.2 µM"}
{"SMILES": "CC[C@H]1[C@@H](O)[C@@H]2[C@H](CC[C@]3(C)[C@@H]([C@H](C)CCOS(=O)(=O)[O-])CC[C@@H]23)[C@@]2(C)CC[C@@H](O)C[C@@H]12.[Na+]", "system": "ob/ob NASH mice, plasma", "setting": "oral, 10 mg/kg once daily, 8 wk", "measurement": "plasma triglycerides", "result": "0.6 ± 0.1 mmol/L"}
{"SMILES": "CCOC(=O)[C@@H](C)NP(=O)(CO[C@H](CF)CN1CNC(N)=NC1=O)N[C@H](C)C(=O)OCC", "target or system": "varicella-zoster virus", "test": "plaque formation", "system": "HEL, Oka, TK+", "measurement": "EC50", "result": "> 100 µM"}
{"SMILES": "COC(=O)C(C)NC(=O)C1OC(OC2C(OC3CCC4(C)C(CCC5(C)C4C(=O)C=C4C6CC(C)(C(=O)O)CCC6(C)CCC45C)C3(C)C)OC(C(=O)NC(C)C(=O)OC)C(O)C2O)C(O)C(O)C1O (stereo not drawn)", "target or system": "Epstein-Barr virus", "test": "viral genome copies, quantitative PCR", "system": "superinfected Raji cells", "setting": "24 h", "measurement": "EC50", "result": "30 ± 5 µM"}
{"SMILES": "CC1(C)NCCC[C@]2(C)[C@H]3CC=C4[C@@H]5C[C@@](C)(CO)CC[C@]5(C)CC[C@@]4(C)[C@]3(C)CC[C@@H]12", "target or system": "human papillomavirus 11", "test": "viral replication, inhibitor, luciferase", "system": "C-33-A", "measurement": "EC50", "result": "> 1.2 µM"}
{"SMILES": "CCCCCCOc1ccc(C(=O)OCCN2CC=CCC2)cc1", "target or system": "Muscarinic acetylcholine receptor M1 (CHRM1, Homo sapiens, UniProt P11229)", "test": "inositol phosphate accumulation, antagonist, Schild analysis", "system": "CHO", "setting": "added: carbachol", "measurement": "Kb", "result": "0.0331 µM"}
